Assay results gathered from unrelated publications.
Protocols differ between the studies behind these lines. Several values in a cell are separate wells, animals, samples, runs or records.
Read-out: metabolic stability

CNC(=O)C1CCN(c2ccccc2NC(=O)c2ccc(-c3cc(O)ccc3C)c(C)c2)CC1 — half-life (mouse, liver microsomes; 2 µM): < 10 min
O=C(c1cc2ccc(Cl)cc2s1)N(c1ccc(OCCN2CCCC2)cc1)c1ccc(OCCN2CCCC2)cc1 — half-life (female mouse, liver microsomes): > 40 min
O=c1c(-c2cnn(-c3ccc(Cl)cc3)c2)c(C(F)(F)F)oc2c(O)c(O)ccc12 — half-life (mouse, liver microsomes): > 300 min
N#Cc1nc(N2CCOCC2)nc(N(Cc2ccc(F)cc2)CC2CCCCC2)n1 — half-life (mouse, liver microsomes): 15 min
O=C(O)c1ccc(/C=C2\SC(=S)N(Cc3cccc(C(F)(F)F)c3)C2=O)cc1 — half-life (mouse, liver microsomes; 1 µM): > 145 min
Brc1ccc(Nc2nc(NN=Cc3c[nH]c4ccccc34)nc(N3CCOCC3)n2)cc1 — half-life (mouse, liver microsomes; 0.1 µM, pH 7.4): 11.9 min
COc1cc(-c2nc3ccc(C(=O)NCCCN4CCN(c5ccccn5)CC4)cc3n2C2CCC2)cc(OC)c1OC — half-life (mouse, liver microsomes): 3.3 min
Cc1[nH]c2ccccc2c1CC(=O)N[C@@H](Cc1ccccc1)C(=O)N(C)c1ccccc1 — half-life (mouse, liver microsomes; 1 µM, pH 7.4): < 1 min
CC(C)CCN(c1nc(C#N)nc(NC2COC2)n1)C(C)c1ccc(F)cc1 (centres unmarked) — half-life (mouse, liver microsomes): 5 min
CNC(=O)C1CCN(c2cc(C)c(F)cc2NC(=O)c2ccc(-c3c(C)ccc4[nH]ncc34)c(C)c2)CC1 — half-life (mouse, liver microsomes; 2 µM): > 25 min
Cc1nc(-c2ccc(NC(=O)c3cccs3)cc2Cl)no1 — half-life (mouse, liver microsomes): 41.4 min
CN(C)C(=O)c1ccnc(N2Cc3cn(Cc4ccc(F)cc4F)nc3C2)n1 — half-life (mouse, liver microsomes): 141 min
C[N+]1(CC(=O)OC2CCCCCCCCCCC2)CCCCC1 — half-life (mouse, liver microsomes): 4.9 min
CNC(=O)C1CCN(c2cc(C)ccc2NC(=O)c2ccc(-c3cc(O)ccc3C)c(C)c2)CC1 — half-life (mouse, liver microsomes; 2 µM): 10 min
COc1cc(-c2nc3ccc(C(=O)NCCCN4CCN(C(=O)c5ccccc5)CC4)cc3n2C2CCC2)cc(OC)c1OC — half-life (mouse, liver microsomes): 2.8 min
N#Cc1nc(N2CCOCC2)nc(N(Cc2ccc(F)cc2)CC2CCCOC2)n1 (centres unmarked) — half-life (mouse, liver microsomes): 3.5 min
CCC(CC)CNC(=N)NC(=N)NCCCCCCNC(=N)NC(=N)NCC(CC)CC — half-life (mouse, hepatocytes; 1 µM): 129 min
COc1cc(-c2nc3ccc(C(=O)NCCCN(C)C)cc3n2C2CCC2)cc(OC)c1OC — half-life (mouse, liver microsomes): 505 min
CNC(=O)c1cc(C)ccc1NC(=O)c1ccc(-c2c(C)ccc3[nH]ncc23)c(C)c1 — half-life (mouse, liver microsomes; 2 µM): > 25 min
O=C(Cc1ccccc1)Nc1nc2ccccc2n1Cc1ccccc1 — half-life (mouse, liver microsomes): 12.9 min and 13 min
